Published values from different studies.
Parts stem from different laboratories: compare values within a part only. Positions count from the first letter of the parent shown.

Study 1
Target: Hepatocyte nuclear factor 3-alpha (Foxa1, Mus musculus, UniProt P35582, residues 1-468, full length assumed)
Sequence of UniProt P35582 (whole entry, looked up): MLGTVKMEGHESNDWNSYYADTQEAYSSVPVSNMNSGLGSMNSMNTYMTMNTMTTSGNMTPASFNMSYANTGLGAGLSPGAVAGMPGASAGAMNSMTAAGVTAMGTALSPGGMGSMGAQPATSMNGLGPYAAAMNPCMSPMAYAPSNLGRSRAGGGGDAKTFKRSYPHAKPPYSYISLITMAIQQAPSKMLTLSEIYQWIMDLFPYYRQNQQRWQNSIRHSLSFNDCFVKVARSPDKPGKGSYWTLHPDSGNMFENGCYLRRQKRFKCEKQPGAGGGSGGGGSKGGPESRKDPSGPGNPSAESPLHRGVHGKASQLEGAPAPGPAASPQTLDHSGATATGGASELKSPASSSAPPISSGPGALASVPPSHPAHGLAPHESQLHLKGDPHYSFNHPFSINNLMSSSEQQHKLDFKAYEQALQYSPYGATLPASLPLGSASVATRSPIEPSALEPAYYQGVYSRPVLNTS
Method: EMSA with sequencing
Form: double-stranded DNA, one strand shown
Matrix: in vitro
Tested at: 10 and 20 nM
Notes: whole designed probe, mean of two concentrations, ends assumed
Relative to: negative control set to 0
Direction: higher = stronger binding
`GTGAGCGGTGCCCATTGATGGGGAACTTCCTATCAGGCGAAGGCCGCCTTTCCTGGCCTCCCCCACAGGCCCGCCAGCGATTCGTCCTTACAAGGCTAGCCTCCACGGGCTGCCCTCTGTGTAAATAAAGCCACAGACTTCCGCCCACAGGTCGCCGCAGGTCCCGCCCGCAGCGCCGGGCCGCGGGGGAGGCGGGAACTGGTGCTACGGCCGCTACGCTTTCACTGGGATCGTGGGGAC` — result for “normalised bound fraction”: 0.469 ratio.
`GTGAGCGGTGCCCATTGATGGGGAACATTTATAAAAAGAGGAAATTATTCATGCCATCAGCACTCCCCATCAATAACAGGAGGAAACCTAACTATCTCATTACCCCATCACACTGTGTGCAAACAGAACTGCCCGTTGTTGACAATAAATATTTGATAAGTGAGGAAACAGGAAGGATAAACCAAGGGTGCAGAGTGGAGCTGCACAGTTGCCAGGAGATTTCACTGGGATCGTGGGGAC`: “normalised bound fraction” 0.28 ratio.
Under “normalised bound fraction”, `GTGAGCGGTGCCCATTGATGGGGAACGGTCAGTTCCCTCCATCCTCATCCCAAGCCCAACAGTAGCTTGACTGACAGTGGCCCCCATCCCAGCATAGTTCCAAGAGGCCCTAACTGACCTTGTTTACATTGCATGGAAATGCCTCTGCACTGCAGAACTTTCAGTTTCAGGGTTTTGCAAATTTTATGAGAATTTTCAGACAAGCTGATTTTTAGCTCCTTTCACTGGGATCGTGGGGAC` is recorded as 0.412 ratio.
For `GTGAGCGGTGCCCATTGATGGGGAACGCATAATAAATTGAGAAAAAAATACTCAATACACTAACTGTCCTTGTCTCTAGTTTGCTCAATTGTGTTATTTCCTGCAGGTATTTAAACAAAGTAAATAGCACTATTTGCCAAGGAGCAATGTAAAAAGTTTCCTGACAAGATTCAACAAGGTTTGTCCAGACGATGAGCAAACACAGCTTGCTCAGGCACATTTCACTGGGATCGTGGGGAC`, “normalised bound fraction” read 0.417 ratio.
Under “normalised bound fraction”, `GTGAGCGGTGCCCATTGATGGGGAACTATTTAATCTAGGCTACTGTGAATAGGAGAAAAATAGTTGCTAAAAGATGGCAGAGTTCACTCAATCCAATGAAATTTTAAAACATCTCAAAGTAAACAAAGCCAGAGAGTTCATCAGCTAATGCTGCGTCATAAGGTTATCTGCATATTAGGTGATCCCAGTGGCTACAGAACTGACTTTCAGAAACACTAGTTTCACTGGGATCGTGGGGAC` is recorded as 0.476 ratio.
Under “normalised bound fraction”, `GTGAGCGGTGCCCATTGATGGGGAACAATCCAGCTACCTATCTTCAGTTCCTTGGCCTTCAGCTGGCAGTGAAACAGACACATCAGCTTTAAGACTGGCAGCCAAATAGTTAACGATCTGTAATCTTACAATTACGCAAGTAGAGAGTTCCTGTTCAAACAGACTGGATGAAAGCCCTTCCATAAAGAACCCTTTAGGTGATGATGCTAAAATTATTTTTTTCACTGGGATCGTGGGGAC` is recorded as 0.134 ratio.
For `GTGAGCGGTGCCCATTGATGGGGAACACAGATGCAAAGATGGGGACTCTGAGAACTCGGGTCATCTCTTGCCAAGCTGCTGAATAGCCAGAGGTAGACCCAGGTTCTTTGCAAACTTCCTTATTTACATAGCCATCAAACTGCTTTAAACCTTTGTATTTCTAAAACTGACTTAACAAGTTAAAACAAGTTCAGATCTCTTTGTGGCAACCCAAGTTCTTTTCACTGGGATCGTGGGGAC`, “normalised bound fraction” read 0.418 ratio.
Under “normalised bound fraction”, `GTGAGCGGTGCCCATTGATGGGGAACATCTTCCCCCTCTTCCTTGCCCCACCAGCTCACCTTCCCGGGTTATTTGCAGATAGGAAAATAAATAAAGCCGGCATTCGTTAACGCAGTTCTGGCGCAAACTGCTGTTTGCTCTGGATGAATCATGGTCCTTTGGCGAGGCGTGGCTCCGGGAGAGCAAAGCACCGTGTCAGGGCCATGATCCGGGGTGGCCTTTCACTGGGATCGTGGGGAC` is recorded as 0.35 ratio.

Study 2
Target: Prothrombin, mature alpha-thrombin (F2, Homo sapiens, UniProt P00734)
Method: aptamer microarray, sandwich
Form: DNA with 2'F-ANA
Matrix: in vitro
Tested at: 200 nM
Notes: whole 15-mer aptamer, many near background
Together with: Cy3 exosite-II aptamer, 400 nM
Direction: higher = stronger binding
Oligonucleotide: GGTTGGTGTGGTTGG
`2'F-ANA at 3 5 6 7 8 13 14`: “mean fluorescence intensity” 52.6 a.u.
Under “mean fluorescence intensity”, `2'F-ANA at 1 2 3 4 6 9 11` is recorded as 123 a.u.
For `2'F-ANA at 4 5 6 7 8 10 13`, “mean fluorescence intensity” read 42.2 a.u.
For `2'F-ANA at 1 3 5 9`, “mean fluorescence intensity” read 63.1 a.u.
`2'F-ANA at 1 2 6 12` — result for “mean fluorescence intensity”: 331 a.u.
For `2'F-ANA at 1 2 3 5 6 8 10 11 13`, “mean fluorescence intensity” read 56 a.u.
`2'F-ANA at 2 3 4 5 7 10 11 12 15` — result for “mean fluorescence intensity”: 58.1 a.u.
For `2'F-ANA at 1 2 3 4 6 7 8 11`, “mean fluorescence intensity” read 158 a.u.

Study 3
Target: CEBPD, bZIP domain (human)
Method: DHFR protein complementation
Matrix: yeast
Notes: single substitutions, most at no-binding floor
Relative to: wild-type JUN-FOS pair
Direction: higher = stronger binding
Parent: JUN, bZIP domain (human); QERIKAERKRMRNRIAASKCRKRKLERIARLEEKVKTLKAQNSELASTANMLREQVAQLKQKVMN; partner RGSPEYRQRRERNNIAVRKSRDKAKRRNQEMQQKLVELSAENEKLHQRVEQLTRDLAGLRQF
`L31G` gave a binding fitness of -1.45 natural log.
The binding fitness of `Q55M` is reported as -1.45 natural log.
For `V35S`, the binding fitness was -1.55 natural log.
With `M51Q` the binding fitness was -1.32 natural log.
For `S47Q`, the binding fitness was -1.3 natural log.
`E32K` gave a binding fitness of -1.43 natural log.
`I28Q` gave a binding fitness of -1.19 natural log.
`E54T` has a binding fitness of -1.36 natural log.

Further values, each from its own experiment
`YPPPRYITV`: binding “inactive” (HLA class I histocompatibility antigen, C alpha chain, allele C*04:01 (Homo sapiens, UniProt P10321); peptide-MHC binding; peptide; concentration not given).

Some of these lines once more (study 3):
With `M51Q` the binding fitness was -1.32 natural log.
For `S47Q`, the binding fitness was -1.3 natural log.
`E32K` gave a binding fitness of -1.43 natural log.
`I28Q` gave a binding fitness of -1.19 natural log.
